Results from different studies.
Parts stem from different laboratories: compare values within a part only. Values joined by “and” are separate records of one study, mostly repeats; a detail may differ.

Study 1
Compound: Cc1nc(C)c(C=[N+]([O-])C(C)(C)C)nc1C
Method: footprint test
Species: MPTP-induced Parkinson's disease mouse model
Quantity: corridor crossing time
90 mg/kg, mean of three trials: 5.49 s and 5.15 s and 6.41 s and 5.31 s and 5.16 s and 7.41 s and 6.6 s and 7.14 s
30 mg/kg: 5.14 s and 6.09 s and 5.36 s and 6.45 s and 5.65 s and 5.33 s and 5.06 s and 7.54 s
30 mg/kg, trial 2: 6.33 s and 5.22 s and 6.09 s and 6.73 s and 5.72 s and 5.49 s and 6.12 s and 4.75 s
30 mg/kg, trial 1: 5.53 s and 5.09 s and 4.22 s and 6.14 s and 5.96 s and 6.35 s and 7.14 s and 5.12 s
10 mg/kg, trial 2: 4.21 s and 7.01 s and 3.96 s and 6.91 s and 6.39 s and 5.29 s and 6.31 s and 7.22 s
90 mg/kg, trial 2: 5.13 s and 4.69 s and 6.62 s and 6.03 s and 5.73 s and 5.87 s and 6.13 s and 7.1 s
90 mg/kg, trial 3: 4.34 s and 6.22 s and 5.43 s and 2.86 s and 5 s and 6.36 s and 7.87 s and 5.18 s
10 mg/kg, mean of three trials: 4.98 s and 6.06 s and 5.6 s and 5.52 s and 6.26 s and 6.07 s and 6.37 s and 3.97 s

Study 2
Target: Activin receptor type-1-like (ACVRL1, Homo sapiens, UniProt P37023)
Chain of UniProt P37023 (whole entry, looked up): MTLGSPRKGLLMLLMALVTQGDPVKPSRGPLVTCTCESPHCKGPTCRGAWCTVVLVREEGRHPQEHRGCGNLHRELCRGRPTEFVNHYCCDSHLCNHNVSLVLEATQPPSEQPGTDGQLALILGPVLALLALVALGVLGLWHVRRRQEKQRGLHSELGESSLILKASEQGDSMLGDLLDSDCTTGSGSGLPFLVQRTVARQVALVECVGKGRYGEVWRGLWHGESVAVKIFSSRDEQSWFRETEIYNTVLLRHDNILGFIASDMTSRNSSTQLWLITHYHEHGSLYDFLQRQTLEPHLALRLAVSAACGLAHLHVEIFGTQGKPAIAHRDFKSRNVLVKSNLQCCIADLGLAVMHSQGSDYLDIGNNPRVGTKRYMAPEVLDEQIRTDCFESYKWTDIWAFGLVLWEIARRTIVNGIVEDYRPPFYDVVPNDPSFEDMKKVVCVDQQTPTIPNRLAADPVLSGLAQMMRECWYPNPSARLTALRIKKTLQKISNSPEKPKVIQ
Effect on: binding
Method: TR-FRET
Quantity: Kd
COc1cc(-c2nc3ccc(C(=O)NCCCN4CCN(c5ccccc5)CC4)cc3[nH]2)cc(OC)c1OC: 343 nM
CNC(=O)[C@H]1C[C@H](n2c(-c3cc(OC)c(OC)c(OC)c3)nc3ccc(C(=O)NCCCN4CCN(c5cccc(C)c5C)CC4)cc32)C1: 3.28 nM
CNC(=O)[C@H]1CC[C@H](n2c(-c3cc(OC)c(OC)c(OC)c3)nc3ccc(C(=O)NCCCN4CCN(c5ccccc5)CC4)cc32)C1: 14 nM
CNC(=O)[C@H]1CC[C@H](n2c(-c3cc(I)c(OC)c(OC)c3)nc3ccc(C(=O)NCCCN4CCN(c5ccccc5)CC4)cc32)C1: 5.4 nM

Study 3
SMILES: CCN1/C(=C/C=C2\CCCC(/C=C/C3=[N+](CC)c4ccccc4C3(C)C)=C2NCCCCCCCCN2CCC(Nc3nc4ccccc4n3Cc3ccc(F)cc3)CC2)C(C)(C)c2ccccc21
Cell line: U-87 MG
Tested at: concentration not given
Relative to: DMSO
Quantity: log2 fold change
refers to: CDKN3 mRNA: -1.61
refers to: MARCHF4 mRNA: -1.3
refers to: C1QL1 mRNA: -1.05
refers to: STEAP1B mRNA: -1.13
refers to: ORC1 mRNA: -1.75
refers to: OASL mRNA: -1.88
refers to: PCDH18 mRNA: -2.51
refers to: CPEB4 mRNA: 1.47
refers to: CCSER2 mRNA: 1.13
refers to: RAB3D mRNA: -0.82
refers to: PARP9 mRNA: -1.69
refers to: TMEM100 mRNA: -2.71
refers to: FLYWCH1 mRNA: 1.37
refers to: HAS1 mRNA: -1.35
refers to: NTNG2 mRNA: 1.87
refers to: EPC1 mRNA: 0.825

Study 4
Structure (SMILES): COCC1CC2C(CCC3(C)C(O)CCC23)c2ccc(O)cc21 (stereo not shown)
Method: DNA microarray
Relative to: untreated cells
Quantity: mRNA level ratio
PANC-1; refers to: ISG20L1; concentration not given, lower dose arm: 0.954
PANC-1; refers to: CCL8; concentration not given, higher dose arm: 28.3
A549; refers to: IL23R; 100 µM: 17.3
PANC-1; refers to: ACTA2; concentration not given, lower dose arm: 0.776
A549; refers to: OLIG2; 50 µM: 42.7
A549; refers to: IL23R; 50 µM: 10.7
A549; refers to: GDF15; 50 µM: 2.35
PANC-1; refers to: MCM10; concentration not given, lower dose arm: 0.705
SK-OV-3; refers to: AURKA; concentration not given, higher dose arm: 0.82
SK-OV-3; refers to: MCM6; concentration not given, higher dose arm: 0.784
PANC-1; refers to: GZMK; concentration not given, lower dose arm: 1
PANC-1; refers to: TMEM108; concentration not given, higher dose arm: 1
A549; refers to: OLIG2; 100 µM: 39.4
PANC-1; refers to: KIF20A; concentration not given, lower dose arm: 0.666 and 0.674 and 0.67 and 0.679 and 0.66
PANC-1; refers to: TMEM108; concentration not given: 3.61
A549; refers to: MCM7; 50 µM: 0.765
A549; refers to: IL20RA; 50 µM: 11.5
PANC-1; refers to: GAPDH; concentration not given, higher dose arm: 0.955 and 0.971 and 0.979 and 0.976 and 0.909

A few entries again (study 4):
A549; refers to: MCM7; 50 µM: 0.765
SK-OV-3; refers to: MCM6; concentration not given, higher dose arm: 0.784
PANC-1; refers to: MCM10; concentration not given, lower dose arm: 0.705
A549; refers to: OLIG2; 50 µM: 42.7
SK-OV-3; refers to: AURKA; concentration not given, higher dose arm: 0.82
A549; refers to: IL23R; 50 µM: 10.7
